# Experimental data collected from several papers.
# Lines come from different studies, so protocols differ. Values joined by “and” are separate records of one study, mostly repeats; a detail may differ. Numbers after ± are the reported error.
# BPTF bromodomain: Nucleosome-remodeling factor subunit BPTF, bromodomain (BPTF, Homo sapiens, UniProt Q12830)
# LGALS1: Galectin-1 (LGALS1, Homo sapiens, UniProt P09382)
SMILES,target,test,system,setting,Kd
CC[C@H](C)[C@H](NC(=O)[C@H](CCCCN)NC(=O)[C@H](CCCCN)NC(=O)[C@@H](NC(=O)[C@H](CCC(=O)O)NC(=O)[C@H](CCC(=O)O)NC(=O)[C@H](CCC(=O)O)NC(=O)[C@H](CO)NC(=O)[C@H](CC(C)C)NC(=O)[C@H](CC(=O)O)NC(=O)[C@H](CC(C)C)NC(=O)CNC(=O)[C@H](CCCNC(=N)N)NC(=O)[C@H](CC(C)C)NC(=O)[C@H](CO)NC(=O)CNC(=O)CNC(=O)CNC(=O)CCCC[C@@H]1SC[C@@H]2NC(=O)N[C@@H]21)C(C)C)C(=O)N[C@@H](CC(C)C)C(=O)N[C@@H](CC(=O)O)C(=O)N[C@@H](CCC(=O)O)C(=O)N[C@H](C(=O)N[C@H](C(=O)N[C@@H](CCCCN)C(=O)N[C@@H](CC(=O)O)C(=O)N1CCC[C@H]1C(=O)N[C@@H](C)C(=O)N[C@@H](CC(=O)O)C(=O)O)C(C)C)[C@@H](C)CC,Fab B11 antibody (human),"binding, biolayer interferometry",,added: biotinylated peptide on tips,0.051 ± 0.001 µM
CC1CC(C)(C)N(C(=O)CN2C(=O)c3ccccc3C2=O)c2ccc(C(=O)N3CCN(C(=O)CCC4=[N+]5C(=Cc6ccc(-c7ccc[nH]7)n6[B-]5(F)F)C=C4)CC3)cc21 (stereo not drawn),"Mucolipin-1 (MCOLN1, Homo sapiens, UniProt Q9GZU1)",BRET kinetics,HEK293T,,0.8 ± 0.4 µM
CC[C@H](C)[C@H](NC(=O)[C@H](Cc1c[nH]c2ccccc12)NC(=O)[C@@H]1CSSC[C@H](NC(=O)[C@H](CCC(=O)O)NC(=O)[C@@H](N)Cc2c[nH]c3ccccc23)C(=O)N2CCC[C@H]2C(=O)N[C@@H](Cc2ccc(O)cc2)C(=O)NCC(=O)N[C@@H](CC(C)C)C(=O)N1)C(=O)N[C@@H](CCC(N)=O)C(N)=O,"FGA/FGB/FGG (Homo sapiens, UniProt P02671+P02675+P02679)",isothermal titration calorimetry,,,> 50 µM
CC(=O)NCCCC[C@H](NC(=O)CNC(=O)CNC(=O)[C@H](C)NC(=O)[C@@H](N)Cc1ccc(O)cc1)C(=O)N[C@@H](C)C(=O)NCC(=O)N[C@@H](CCCCN)C(=O)N[C@@H](CC(=O)O)C(=O)N[C@@H](CO)C(=O)NCC(=O)N[C@@H](CCCCN)C(=O)N[C@@H](C)C(=O)N[C@@H](CCCCNC(C)=O)C(=O)N[C@H](C(=O)N[C@@H](CCCCN)C(=O)N[C@@H](C)C(=O)N[C@H](C(=O)N[C@@H](CO)C(=O)N[C@@H](CCCNC(=N)N)C(N)=O)C(C)C)[C@@H](C)O,BPTF bromodomain,"bromodomain binding, PrOF NMR titration",,"pH 7.4, 5-fluorotryptophan-labelled bromodomain, 40-50 µM",780 µM
N=C(N)NCCC[C@@H]1NC(=O)[C@H](Cc2csc3ccccc23)NC(=O)[C@@H](Cc2ccccc2)NC(=O)[C@H](Cc2ccccc2)NC(=O)[C@H](CCC(=O)NCCOCCOCC(=O)N[C@@H](CCCCNC(=S)Nc2ccc3c(c2)C(=O)OC32c3ccc(O)cc3Oc3cc(O)ccc32)C(N)=O)NC(=O)[C@@H](CCCNC(=N)N)NC(=O)[C@H](CCCNC(=N)N)NC(=O)[C@@H](CCCNC(=N)N)NC1=O,fetal bovine serum proteins,"binding, fluorescence polarization",,1 h,30 ± 5 µM
[N-]=[N+]=NCCOC1OC(CO)C(OC2OC(COC3(C(=O)O)CC(O)C(NC(=O)OCc4cn(C(c5ccccc5)c5ccccc5)nn4)C(C(O)C(O)CO)O3)C(O)C(O)C2O)C(O)C1O (stereo not drawn),"Sialic acid-binding Ig-like lectin 9, V-set domain (SIGLEC9, Homo sapiens, UniProt Q9Y336, C36S)","binding, isothermal titration calorimetry",,"pH 7.4, domain 1",19.5 ± 1.3 µM
O=C(O)C1(O)Oc2cc(Br)ccc2N(Cc2ccccc2)C1=O (stereo not drawn),"Dihydroxy-acid dehydratase, chloroplastic (DHAD, Arabidopsis thaliana, UniProt Q9LIR4)",microscale thermophoresis,,,< 3 µM
CCN(CC)C1CCN(Cc2cc(C#CCN)cc(I)c2O)CC1,"Cellular tumor antigen p53 (TP53, Homo sapiens, UniProt P04637, M133L/N239Y/N268D/V203A/Y220C)",,,"20 °C, protein 75 µM",1080 ± 360 µM
O=P(O)(O)O[C@@H]1[C@@H](O)[C@H](O)[C@H](O)[C@H](O)[C@H]1OP(=O)(O)O,"Inositol 1,4,5-trisphosphate-gated calcium channel ITPR1, IP3-binding core (Itpr1, Rattus norvegicus, UniProt P29994)","binding, radioligand competition binding",,"IP3-binding core, CLM medium, added: [3H]IP3",0.427 µM
OC[C@H]1Oc2cc(I)cc3c2[C@@H](OC3)[C@H]1O,"Galectin-9 (LGALS9, Homo sapiens, UniProt O00182)","cell-free assay, FP",,,> 2000 µM
CC1=C(/C=C/C(C)=C\C=C\C(C)=C\C=O)C(C)(C)CCC1,"Rhodopsin, apoprotein (opsin) (RHO, Bos taurus, UniProt P02699)",Trp fluorescence quenching,opsin membranes,titration up to 1 µM,0.0576 µM
O=C(Cc1cccc(C(F)(F)F)c1)Nc1cc(Oc2ccc3nc(NC(=O)C4CC4)sc3c2CO)ccc1F,"Receptor-interacting serine/threonine-protein kinase 3 (RIPK3, Homo sapiens, UniProt Q9Y572)","binding, competition with immobilised ligand",,,0.16 µM
CC(=O)NCCCC[C@H](NC(=O)CNC(=O)[C@H](C)NC(=O)[C@H](CCCCN)NC(=O)CNC(=O)CNC(=O)[C@H](C)NC(=O)[C@@H](N)Cc1ccc(O)cc1)C(=O)N[C@@H](CC(=O)O)C(=O)N[C@@H](CO)C(=O)NCC(=O)N[C@@H](CCCCN)C(=O)N[C@@H](C)C(=O)N[C@@H](CCCCNC(C)=O)C(=O)N[C@@H](C)C(=O)N[C@@H](CCCCNC(C)=O)C(=O)N[C@@H](C)C(=O)N[C@H](C(=O)N[C@@H](CO)C(=O)N[C@@H](CCCNC(=N)N)C(N)=O)C(C)C,BPTF bromodomain,"bromodomain binding, PrOF NMR titration",,"pH 7.4, 5-fluorotryptophan-labelled bromodomain, 40-50 µM",960 µM
OC[C@H]1Oc2c(I)c(I)cc3c2[C@@H](OC3)[C@H]1O,LGALS1,"ligand displacement, FP",,,890 µM
CN(C)CCNC(=O)c1cccc2c(NCCCCc3c(N)nc(N)nc3N)c3ccccc3nc12,RNA with single C–U pair,"binding, ITC",,"25 °C, 2",231 ± 55 µM
C[n+]1ccc(/C=N/NC(=O)c2cccc(C(=O)N/N=C/c3cc[n+](C)c4ccccc34)n2)c2ccccc21,G-quadruplex DNA myc22,fluorimetric titration,,"pH 7.2, 100 mM KCl, added: Cy5-labelled DNA 2 nM",0.0112 ± 0.0022 µM
O=C(O)Cc1cccc(O)c1,"p-hydroxyphenylacetate 3-hydroxylase, reductase component (C1-hpah, Acinetobacter baumannii, UniProt Q6Q271)",ITC,,"pH 7, added: 1 mM FMN",36.4 ± 6.9 µM
Cc1cc(N2CCC(CO)(C3CC3)C2=O)cc(C(=O)NCc2cc(F)cc(-c3cnn(C)c3)c2)n1 (stereo not drawn),"Proline--tRNA ligase (Plasmodium falciparum, UniProt Q8I5R7)","binding, microscale thermophoresis",,,0.243 µM and 0.201 µM
CC#Cc1cc2c3c(c1)O[C@H](CO)[C@H](O)[C@@H]3OC2,LGALS1,"ligand displacement, FP",,,840 µM
CC[C@H](C)[C@H](NC(=O)[C@H](CCC(=O)O)NC(=O)[C@H](CC(=O)O)NC(=O)[C@H](CC(C)C)NC(=O)[C@@H](NC(=O)[C@H](CCCCN)NC(=O)[C@H](CCCCN)NC(=O)[C@@H](NC(=O)[C@H](CCC(=O)O)NC(=O)[C@H](CCC(=O)O)NC(=O)[C@H](CCC(=O)O)NC(=O)[C@H](CO)NC(=O)[C@H](CC(C)C)NC(=O)[C@H](CC(=O)O)NC(=O)[C@H](CC(C)C)NC(=O)CNC(=O)[C@H](CCCNC(=N)N)NC(=O)[C@H](CC(C)C)NC(=O)[C@H](CO)NC(=O)CNC(=O)CNC(=O)CNC(=O)CCCC[C@@H]1SC[C@@H]2NC(=O)N[C@@H]21)C(C)C)[C@@H](C)CC)C(=O)N[C@@H](C)C(=O)N[C@@H](CCCCN)C(=O)N[C@@H](CC(=O)O)C(=O)O,Fab B11 antibody (human),"binding, biolayer interferometry",,added: biotinylated peptide on tips,0.047 ± 0.001 µM
Nc1ccc(/C=C/C(=O)NCC2Cc3cc(-c4ccc(C(=O)N5CCNCC5)cc4)cc(Cl)c3O2)cn1 (stereo not drawn),"Serine/threonine-protein kinase PAK 4 (PAK4, Homo sapiens, UniProt O96013)","binding, SPR",,,9.65 µM
CNc1ccccc1C(=O)O[C@H]1C[C@H](n2cnc3c(N)ncnc32)O[C@@H]1COP(=O)(O)OP(=O)(O)O,"Unconventional myosin-Va (Gallus gallus, UniProt Q02440, D297C/G292C/I296C/S293C/V295G)","binding, ligand, stopped-flow FRET",,"15 °C, added: 4 mM EDTA",3.87 ± 1.01 µM
CCOc1ccc(-c2nc3cc(-c4nc5cc(N6CCN(C)CC6)ccc5[nH]4)ccc3[nH]2)cc1,HIV-1 SL3 RNA stem-loop,"binding, ESI-FTMS titration",,pH 7.5,88.2 ± 6.6 µM
C[C@H](NC(=O)[C@H](C)NC(=O)[C@H](Cc1ccc(O)cc1)NS(=O)(=O)c1cccc2c(N(C)C)cccc12)C(=O)N[C@@H](CCC(N)=O)C(=O)N[C@@H](CCCCN)C(=O)N[C@@H](Cc1c[nH]cn1)C(=O)N[C@@H](Cc1ccccc1)C(=O)N[C@@H](Cc1c[nH]cn1)C(=O)O,"Rho guanine nucleotide exchange factor TIAM1, PDZ domain (TIAM1, Homo sapiens, UniProt Q13009)",fluorescence anisotropy,,"25 °C, added: dansylated peptide 1 µM",> 250 µM

# Repeated from above:
SMILES,target,test,system,setting,Kd
O=C(O)Cc1cccc(O)c1,"p-hydroxyphenylacetate 3-hydroxylase, reductase component (C1-hpah, Acinetobacter baumannii, UniProt Q6Q271)",ITC,,"pH 7, added: 1 mM FMN",36.4 ± 6.9 µM
